# Measurements from different studies.
# Parts stem from different laboratories: compare values within a part only. Positions count from the first letter of the parent shown.

# Set 1
# Target: CCNE2, cyclin fold, Cln2 fusion (human)
# Method: yeast growth competition, sequencing
# Sample: yeast
# Notes: weak parent motif
# Reference: not given
# Direction: higher = stronger binding
# Starting sequence: SLBP docking peptide (human); ARYKRKLLINDFG
Variant,normalised enrichment score
G13F,0.893
I9E,0.883
K6V,0.707
L8R,0.285
K6A,0.949
F12R,1.5
K6G,0.441

# Set 2
# Target: Interferon regulatory factor 5, full length, phosphomimetic (IRF5, Homo sapiens, UniProt Q13568-2, residues 1-514, K96S/S451D/S453D/S456D/S462D)
# Method: protein-binding microarray
# Molecule type: double-stranded DNA, one strand shown
# Sample: in vitro
# Tested at: 250 nM
# Notes: 60-bp whole probe
# Together with: salmon DNA 0.4 mg/ml
# Reference: random background probes
# Direction: higher = stronger binding
# Shared flanks, not repeated: GCCTAGCAC … GTCTTGATTCGCTTGACGCTGCTG
Oligonucleotide,log fluorescence [z-score]
TCATTTTTCTCACCACATACTGTGCTA,1.14
AGAAACTTTTTTCTGATTGAGTGCTAG,2.41
TTAGGTATCCTTATCCCTTAGTGCTAG,0.101
TTAGATTTCAGACTGGATCAGTGCTAG,0.247
GACGGTTTCGTCTATCGGGACGTGCTA,4.91
GACGAATTGGGGACTGGAGACGTGCTA,-0.568
GACGATTTAGGGACTGGAGACGTGCTA,-0.289
TTAGTACTGAGTATCGATTAGTGCTAG,5.98
GACGGTATCCCTTTCCTGACGTGCTAG,0.311
GCCTTTTATTTGAAAGAAATGTGCTAG,0.611
GACGATTCCAGTTTCGAGCCGTGCTAG,4.06
GACGATCTCAGTTTCGAGACGTGCTAG,4.94
ATAGGTTCCGGTTTCGGTTAGTGCTAG,9.15

# Set 3
# Target: Ras GTPase-activating protein-binding protein 1, RRM domain (G3BP1, Homo sapiens, UniProt Q13283)
# Sequence of UniProt Q13283 (whole entry, looked up): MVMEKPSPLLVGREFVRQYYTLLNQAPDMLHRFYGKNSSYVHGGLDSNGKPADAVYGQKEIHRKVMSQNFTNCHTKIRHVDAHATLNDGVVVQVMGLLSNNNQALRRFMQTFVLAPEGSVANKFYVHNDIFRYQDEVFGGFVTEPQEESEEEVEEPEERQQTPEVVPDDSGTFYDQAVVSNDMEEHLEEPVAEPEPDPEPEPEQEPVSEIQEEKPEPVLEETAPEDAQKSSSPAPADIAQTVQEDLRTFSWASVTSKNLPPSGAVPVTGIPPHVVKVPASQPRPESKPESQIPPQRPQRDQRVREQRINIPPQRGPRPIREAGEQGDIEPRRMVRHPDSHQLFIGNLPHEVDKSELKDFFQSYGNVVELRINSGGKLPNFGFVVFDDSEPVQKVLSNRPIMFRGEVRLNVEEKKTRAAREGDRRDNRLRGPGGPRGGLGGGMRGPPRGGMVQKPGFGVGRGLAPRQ
# Method: RNA Bind-n-Seq
# Molecule type: RNA
# Sample: in vitro
# Tested at: 1 µM
# Notes: whole 134-nt RNA, ends assumed
# Together with: 150 mM KCl
# Reference: input library
# Direction: higher = stronger binding
# Shared flanks, not repeated: GGGAGUUCUACAGUCCGACGAUC … UGGAAUUCUCGGGUGUCAAGG
Oligonucleotide,log2 enrichment
GCAGGAAGUAAAAACAAAUGGAAAUGCUUCGGAUAGUGGCAGGGGUGGGGGUUGCUAAGGAAAGGGUGGGAUGGGAGUGGGUAGAGAGUU,0.699
UUCCUCAAGUCCUGUGCUACACAUCGUAUGUACCGAAUCGGUGGAGGUGGAAAGUAUUAUGUUACGCCGUUCGGAUCUGCACUUCCAGCA,-0.274
UGUACUGAUGACAGCUAAUCUCUGAAUCUUUUUCCUCCAGGAUGUUCCUUCAGGAGGAAGCAGCACUAAAAGCACUCUGAGUCAAGAUGA,-0.26
ACCAUGCAGGUGGGCAUCUUUGGGAAGUGGGGCAAGGGGGGGAUAAGGAGGGGGGUAACACUUUGGGAACAGGUGGUCCCAGGUCGUUUC,0.873
CAAGUCCUGUGCUACACAUCGUAUGUACCGAAUCGGAAAAAGGUUUUUGGAAAGGAAAGUAUUAUGUUACGCCGUUCGGAUCUGCACUUC,-0.318
CUCAAGUCCUGUGCUACACAUCGUAUGUACCGAAUCGGAAGGGAAGGGAAGGGAAAGUAUUAUGUUACGCCGUUCGGAUCUGCACUUCCA,0.208
GUCCUGUGCUACACAUCGUAUGUACCGAAUCGGGUUUUUUUGGGAAAAAAAGGGUGGGAAAGUAUUAUGUUACGCCGUUCGGAUCUGCAC,0.0226
UCAAGUCCUGUGCUACACAUCGUAUGUACCGAAUCGGUUUGGUGGUUUUUUUGGAAAGUAUUAUGUUACGCCGUUCGGAUCUGCACUUCC,-0.221
CCUCAAGUCCUGUGCUACACAUCGUAUGUACCGAAUCGGAGGAAAAAGGAGGAAAGUAUUAUGUUACGCCGUUCGGAUCUGCACUUCCAG,-0.138
GCAGGAAGUAAAAACAAAUGGAAAUGCUUCGGAUAGUGGCAGGGGUGGGGGUUGCUAAGGCAAGGGUGGGAUGGGAGUGGGUAAAGAGUU,1.2

# Other studies, line by line
Substance,target,test,test system,setting,scale,measurement,result
"PhoQ, residues 284 288 289 292 302 303 TNSAEL","PhoP, residues 12 14 15 18 19 NHFRA (Escherichia coli, UniProt P23836)","Sort-seq, measured: YFP reporter",E. coli,"PhoQ-PhoP variant library, together with: 10 µM Mg2+","reference: high Mg2+ state, higher = stronger signaling",fold induction,3.08

# Excerpt of the above (set 2):
Oligonucleotide,log fluorescence [z-score]
TTAGGTATCCTTATCCCTTAGTGCTAG,0.101
GACGATTCCAGTTTCGAGCCGTGCTAG,4.06
GACGATTTAGGGACTGGAGACGTGCTA,-0.289
TTAGTACTGAGTATCGATTAGTGCTAG,5.98
